Results pooled from the literature.
Each numbered part is a random draw from the data of one study; scales do not carry over between parts. Positions count from the first letter of the parent shown.

Set 1 — technique: RNA Bind-n-Seq; molecule type: RNA; medium: in vitro; tested at: 20 nM; setting: 6-mer, flanks averaged, single round; added: 150 mM KCl; baseline: input library; reading: higher = stronger binding; endpoint: 6-mer enrichment (R)
Target: TAR DNA-binding protein 43, full length, His tag (TARDBP, Homo sapiens, UniProt Q13148, residues 1-414)
GGCGAA: 1.72
ACGCUU: 0.601
GGGGGG: 16.3
GCUUCA: 0.617
UCCUAU: 0.567
CGCACC: 0.724
AGGUCG: 1.31
CAGACG: 0.956

Set 2 — technique: RNA Bind-n-Seq; molecule type: RNA; medium: in vitro; tested at: not given; baseline: input RNA pool; reading: higher = stronger binding; endpoint: bound/input enrichment
Target: RING finger protein unkempt homolog, zinc fingers 1-6, GST-SBP tag (UNK, Homo sapiens, UniProt Q9C0B0, residues 30-357)
Setting: RNA with constant flanks, human-mouse chimeric sites, ends assumed
Shared flanks, not repeated: GGGAGUUCUACAGUCCGACGAUC … CAACAGAGGAUUGAGCAUCA
Residues (chain): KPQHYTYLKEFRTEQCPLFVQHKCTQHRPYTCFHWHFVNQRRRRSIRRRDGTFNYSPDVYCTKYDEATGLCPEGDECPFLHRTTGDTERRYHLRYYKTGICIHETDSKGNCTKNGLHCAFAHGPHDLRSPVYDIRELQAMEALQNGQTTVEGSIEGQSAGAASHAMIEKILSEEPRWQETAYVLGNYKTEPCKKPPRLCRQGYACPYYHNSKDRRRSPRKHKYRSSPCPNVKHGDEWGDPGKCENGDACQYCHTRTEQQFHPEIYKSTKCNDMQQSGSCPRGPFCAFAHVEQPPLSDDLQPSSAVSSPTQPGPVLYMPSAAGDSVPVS
AAAGAGAAUGGAGAUGUAAAGAUUUUACUGAAAAGUGGGAAGGAGAAACCAAAAACAAAUAUAGAAGACUUACAAAUUAAAAAGGUAAAGAAGAAAAAGAAAAAGAAACACAAAGAGAAU: 16.9 ratio
UUUGUAUUUAUGCUAAGCACACGUGCUGGUGGUCUGGGCAUCAAUCUUGCGACUGCUGAUGUAGUCAUUUUGUAUGACUCAGAUUGGAAUCCGCAAGUUGAUCUUCAGGCUAUGGACCGU: 0.0954 ratio
GUGUCCUGCUUUCAACUUAAAUCACUGAGGCAUCUCUACUAUUCUGUGAGCAUCAGGACUGUAGCGCUGUGUCACCACAUGAGAGUUCAGAAGCAGCCUUUCUGUGGAGGGUGGGAAUGA: 0.164 ratio
AGAAAGCAAAACUUGGAACGAUUUAAGAAAGGAGACGUAAGAUUCUUGAUUUGCACAGAUGUAGCUGCUAGAGGAAUUGAUAUCCACGGCGUUCCUUAUGUGAUCAACGUCACCCUGCCU: 0.221 ratio
UGUAGUUUCGCGGUUCAGGCUUUGUGUGUAGUUCACUUACGGUAUUAAAUUAUUAUUGCCCUUAGUUUAUAAUAAGGAUAAUUGCAUUUAAAGAGGUUACUGAAUGUUACUCUGAAACUU: 0.585 ratio
GUGUCCUGCUUUCAACUUAAAUCACUGAGGCAUCUCUACUGUUCUGUGAGCAUCAGGAUUUUAGUGCUGUGUCACCACAUGAGAGUUCAGAAGCAGCCUUUCUGUGGAGGGUGGGAAUGA: 0.151 ratio
GAGUCGAGCAAACUUGAAACAAUUCGUUAUCUUGCAGCCUCAGUGUUUUUACUUGCCGCGAUAGCAUUGGGGUUUUAUAGGUUCUGGAAGGAGAACUUUAAUGCUCACUGCCGCUGCUGC: 0.259 ratio
AUGGAGAAGGAUUCUCUGCCCCGCUUUGUGCGCUCUGAAUUUUAUAAGGAGUUAAUCAAGUAGUCAUCUGGUCAGGCUUCCAAAAGUUGCCCUGUGAUAUUUCCUCCAUCCUUUGUAGCA: 0.237 ratio

Set 3 — technique: Sort-seq; item: YFP reporter; medium: E. coli; setting: PhoQ-PhoP variant library; added: 10 µM Mg2+; baseline: high Mg2+ state; reading: higher = stronger signaling; endpoint: fold induction
Substance: PhoQ, residues 284 288 289 292 302 303 SSLVEF
PhoP, residues 12 14 15 18 19 GMGLL (Escherichia coli, UniProt P23836): 2.77
PhoP, residues 12 14 15 18 19 QQAYL (Escherichia coli, UniProt P23836): 5.62
PhoP, residues 12 14 15 18 19 LFHKL (Escherichia coli, UniProt P23836): 6.88

Other studies, line by line
Starting sequence: PafA, mature enzyme, eGFP fusion (Elizabethkingia meningoseptica, UniProt Q9KJX5); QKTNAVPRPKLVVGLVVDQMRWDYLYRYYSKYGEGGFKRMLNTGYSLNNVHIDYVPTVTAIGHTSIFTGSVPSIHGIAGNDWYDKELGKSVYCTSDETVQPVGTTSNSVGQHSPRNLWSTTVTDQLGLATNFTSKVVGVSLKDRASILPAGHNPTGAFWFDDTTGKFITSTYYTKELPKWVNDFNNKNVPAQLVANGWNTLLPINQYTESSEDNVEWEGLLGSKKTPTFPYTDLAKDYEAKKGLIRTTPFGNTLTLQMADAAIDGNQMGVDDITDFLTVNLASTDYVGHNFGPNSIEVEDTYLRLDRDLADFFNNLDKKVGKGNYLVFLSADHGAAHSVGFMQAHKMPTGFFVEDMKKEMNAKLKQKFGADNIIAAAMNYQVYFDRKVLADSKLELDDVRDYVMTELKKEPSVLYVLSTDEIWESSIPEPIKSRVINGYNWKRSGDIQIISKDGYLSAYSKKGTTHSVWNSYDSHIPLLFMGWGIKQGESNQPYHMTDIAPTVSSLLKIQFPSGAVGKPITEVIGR
D311V  oxyanion analog dissociation constant (tungstate, free oxyanion; microfluidic competitive inhibition; in vitro, cell-free expressed; not given, derived from inhibition constants, unchanged parent 2230 nM; lower = stronger binding): 2260 nM
